Measurements from different studies.
Numbered parts are unrelated; each lists some results of a single study.

Block 1
Target: Sal-like protein 4, full length isoform A (SALL4, Homo sapiens, UniProt Q9UJQ4, residues 1-1053)
Sequence of UniProt Q9UJQ4 (whole entry, looked up): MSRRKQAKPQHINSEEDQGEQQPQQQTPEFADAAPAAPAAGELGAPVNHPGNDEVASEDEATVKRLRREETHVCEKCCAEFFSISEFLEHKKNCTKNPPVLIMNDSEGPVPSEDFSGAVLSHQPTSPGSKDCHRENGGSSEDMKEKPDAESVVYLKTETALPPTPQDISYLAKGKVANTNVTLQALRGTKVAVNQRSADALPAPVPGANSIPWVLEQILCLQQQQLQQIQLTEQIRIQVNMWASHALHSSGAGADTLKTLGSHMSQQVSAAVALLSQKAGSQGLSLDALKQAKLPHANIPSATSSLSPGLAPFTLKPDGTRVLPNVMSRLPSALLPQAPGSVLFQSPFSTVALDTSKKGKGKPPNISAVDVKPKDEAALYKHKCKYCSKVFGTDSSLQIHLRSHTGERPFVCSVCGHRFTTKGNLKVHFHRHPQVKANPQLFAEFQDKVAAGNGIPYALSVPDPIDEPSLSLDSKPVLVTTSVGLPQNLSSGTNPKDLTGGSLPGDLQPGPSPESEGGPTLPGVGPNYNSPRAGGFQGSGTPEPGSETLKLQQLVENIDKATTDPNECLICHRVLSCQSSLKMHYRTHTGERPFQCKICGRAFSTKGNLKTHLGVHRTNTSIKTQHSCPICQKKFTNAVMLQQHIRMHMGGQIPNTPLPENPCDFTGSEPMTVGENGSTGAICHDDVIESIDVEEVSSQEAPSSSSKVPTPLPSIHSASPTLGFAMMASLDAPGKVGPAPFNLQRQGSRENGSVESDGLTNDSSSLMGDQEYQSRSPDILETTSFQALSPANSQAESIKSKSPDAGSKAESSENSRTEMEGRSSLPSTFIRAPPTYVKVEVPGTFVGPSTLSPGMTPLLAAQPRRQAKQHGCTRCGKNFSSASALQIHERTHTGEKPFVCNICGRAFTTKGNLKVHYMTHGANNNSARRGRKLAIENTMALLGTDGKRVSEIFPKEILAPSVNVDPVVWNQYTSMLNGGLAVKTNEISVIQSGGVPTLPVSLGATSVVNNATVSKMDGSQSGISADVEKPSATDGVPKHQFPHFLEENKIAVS
Technique: universal PBM
Molecule type: double-stranded DNA, one strand shown
Sample: in vitro
Concentration: 600 nM
Notes: 8-mer, flanks averaged, mean of replicates
Direction: higher = stronger binding
| Oligonucleotide | E-score |
| --- | --- |
| CGCTGACG | -0.311 |
| GAGGGCGA | -0.299 |
| GTGATGCA | 0.12 |
| GTACCAAA | 0.0779 |
| CAAGTGGA | -0.00851 |
| GAAGATAC | 0.104 |
| GTCAGAAC | -0.125 |

Block 2
Target: RING finger protein unkempt homolog, zinc fingers 1-6, GST-SBP tag (UNK, Homo sapiens, UniProt Q9C0B0, residues 30-357)
Sequence of UniProt Q9C0B0 (30-357, looked up): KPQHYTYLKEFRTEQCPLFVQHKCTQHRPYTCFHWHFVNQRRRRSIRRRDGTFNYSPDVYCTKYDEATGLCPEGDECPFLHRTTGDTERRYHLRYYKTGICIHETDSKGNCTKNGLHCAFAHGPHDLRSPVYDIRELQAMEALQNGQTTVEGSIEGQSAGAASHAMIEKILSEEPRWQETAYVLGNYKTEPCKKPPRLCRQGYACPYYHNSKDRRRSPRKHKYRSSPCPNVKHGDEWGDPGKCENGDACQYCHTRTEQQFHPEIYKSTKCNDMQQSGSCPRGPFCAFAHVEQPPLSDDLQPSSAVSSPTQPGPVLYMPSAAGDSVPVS
Technique: RNA Bind-n-Seq
Molecule type: RNA
Sample: in vitro
Concentration: not given
Notes: RNA with constant flanks, human and mouse sites, ends assumed
Baseline: input RNA pool
Direction: higher = stronger binding
| Oligonucleotide | bound/input enrichment |
| --- | --- |
| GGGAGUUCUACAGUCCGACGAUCAAGGUGCCCUUAUUGCUUCCAAAUGUUUCUGCUUUGGAAUCUCAAAUAGAAAUGGGCAACAUAGUUAAACCCAAAGUACUUACGAAAGAAGCAGAGGAAAAACUUCCUUCUGAUACAGAGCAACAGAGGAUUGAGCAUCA | 0.354 ratio |
| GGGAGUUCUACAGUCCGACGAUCCCACCGUCUUCAUCUCCUUUAGAACAAAGCACAGAGGAGGGAGUACACCUAAACCAGGCAGUCACGCUGGACGCUAACGAGGAAGAAAUGCUGGAGGUGAUGUCUGAUUCCGAGGAGAAUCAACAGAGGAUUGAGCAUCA | 0.149 ratio |
| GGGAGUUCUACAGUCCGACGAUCUCUCAGCUUCGGAGAAUGGAGUCUUCCAUCAAUCAUAUCUCACAGACUGUGGAUAUUCAUAAGGAGAAAGUGGCACGAAGAGAGAUUGGUAUUUUGACAACAAAUAAGAAUACAUCAAGACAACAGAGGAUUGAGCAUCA | 0.229 ratio |
| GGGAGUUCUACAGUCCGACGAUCCAUCUCAGGUCAUCUUCUGUGGAAGAUGUUAAACUAAUUACUAAUGAGGUAAGACCUGCUGUAGAAAUUAGAAGAUGCAGUAUGCCCUCAGUUAUCUGUGAGCCCAUAAAACAUUUCCAACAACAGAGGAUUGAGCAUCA | 0.503 ratio |
| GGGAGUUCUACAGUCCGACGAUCCAUCAGCUGUCUACACCACAAAAAGCAAGUCAACACCAAGUUCUGUUUUUGUUAUCAGAUGUAGCACAUGCUAAGAAUCCAACCCAUUCCAUUAAAAAAGUACCUACCUCUGCUUUAGUUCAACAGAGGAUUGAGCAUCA | 0.308 ratio |
| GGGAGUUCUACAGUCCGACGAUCUUGCUUGAAUGAAUGAUUUUGGUAGUAAUAUGAGCGUUAUCCUUAAAUCAAUGUUACAAUUUUUGCUAUUACUGAAAUACCGUCACAGAGGCCACAUUAUUGGCUGUCUAUACCAUUGCCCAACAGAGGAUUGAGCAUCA | 0.285 ratio |
| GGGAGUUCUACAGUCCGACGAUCUGCUUUACUGGAAAGACCCAGAAUAUGCCAAGUAUCUAAAGUACCCUCAGUGUUUACACAUGUUAGAGCUGCUCCAAUAUGAACACUUCCGAAAGGAGCUGGUGAAUGCUCAGUGUGCGACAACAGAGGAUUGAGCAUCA | 0.152 ratio |

Block 3
Target: Histone acetyltransferase KAT6A, winged helix 2, GST fusion (KAT6A, Homo sapiens, UniProt Q92794, residues 85-181)
Technique: protein binding microarray
Molecule type: double-stranded DNA, one strand shown
Sample: in vitro
Concentration: not given
Notes: 8-mer, flanks averaged, mean of 2 arrays, mostly near background
Baseline: not given
Direction: higher = stronger binding
Residues (chain): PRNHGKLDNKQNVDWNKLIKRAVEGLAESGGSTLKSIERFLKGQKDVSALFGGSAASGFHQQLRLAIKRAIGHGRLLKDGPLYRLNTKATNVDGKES
| Oligonucleotide | E-score |
| --- | --- |
| AACCACGC | -0.121 |
| AGCCCAGC | 0.138 |
| GGGGTTAC | -0.274 |
| TGTGGCAA | 0.111 |
| ATTTGCCC | 0.0408 |

Further values, each from its own experiment
| Substance | target | test | test system | conditions | scale | quantity | result |
| --- | --- | --- | --- | --- | --- | --- | --- |
| PhoQ, residues 284 288 289 292 302 303 SLSVQF | PhoP, residues 12 14 15 18 19 AQCLL (Escherichia coli, UniProt P23836) | Sort-seq, item: YFP reporter | E. coli | PhoQ-PhoP variant library, together with: 10 µM Mg2+ | baseline: high Mg2+ state, higher = stronger signaling | fold induction | 1.28 |

Some of these lines once more (block 1):
| Oligonucleotide | E-score |
| --- | --- |
| CGCTGACG | -0.311 |
| GAGGGCGA | -0.299 |
